Published values from different studies.
A part holds a random share of what one study measured.
Sequence of UniProt P07949 (whole entry, unmodified, looked up): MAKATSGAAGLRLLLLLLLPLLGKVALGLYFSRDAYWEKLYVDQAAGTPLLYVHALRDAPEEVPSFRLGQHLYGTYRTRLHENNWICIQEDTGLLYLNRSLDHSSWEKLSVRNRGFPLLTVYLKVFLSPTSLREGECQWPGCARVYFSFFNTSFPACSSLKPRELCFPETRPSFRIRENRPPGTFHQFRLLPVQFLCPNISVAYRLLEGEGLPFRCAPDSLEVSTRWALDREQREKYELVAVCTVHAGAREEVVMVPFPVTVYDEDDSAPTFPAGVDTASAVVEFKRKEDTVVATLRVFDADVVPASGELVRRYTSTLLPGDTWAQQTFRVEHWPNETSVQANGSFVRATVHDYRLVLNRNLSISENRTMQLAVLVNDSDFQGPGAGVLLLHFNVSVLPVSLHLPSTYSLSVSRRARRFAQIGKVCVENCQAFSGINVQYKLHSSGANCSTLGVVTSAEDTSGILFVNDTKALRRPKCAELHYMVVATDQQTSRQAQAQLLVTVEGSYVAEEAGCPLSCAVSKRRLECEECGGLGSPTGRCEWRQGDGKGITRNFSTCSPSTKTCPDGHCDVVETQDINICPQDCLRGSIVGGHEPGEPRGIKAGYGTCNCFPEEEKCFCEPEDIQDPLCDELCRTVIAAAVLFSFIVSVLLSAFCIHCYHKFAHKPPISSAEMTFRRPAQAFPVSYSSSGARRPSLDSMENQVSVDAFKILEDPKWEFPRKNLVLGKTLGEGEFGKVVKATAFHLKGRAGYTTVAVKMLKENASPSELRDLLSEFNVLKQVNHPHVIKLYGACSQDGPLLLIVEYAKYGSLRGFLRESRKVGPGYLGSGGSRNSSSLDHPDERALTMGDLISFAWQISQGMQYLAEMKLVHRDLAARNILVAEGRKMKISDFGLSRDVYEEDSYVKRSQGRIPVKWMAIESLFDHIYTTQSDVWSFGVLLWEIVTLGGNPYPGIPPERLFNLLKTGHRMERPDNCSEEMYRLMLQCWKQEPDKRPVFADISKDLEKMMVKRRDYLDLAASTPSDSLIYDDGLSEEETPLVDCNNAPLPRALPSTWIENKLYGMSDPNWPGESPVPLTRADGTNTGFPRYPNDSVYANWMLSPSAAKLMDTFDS
Sequence of UniProt O14757 (whole entry, looked up): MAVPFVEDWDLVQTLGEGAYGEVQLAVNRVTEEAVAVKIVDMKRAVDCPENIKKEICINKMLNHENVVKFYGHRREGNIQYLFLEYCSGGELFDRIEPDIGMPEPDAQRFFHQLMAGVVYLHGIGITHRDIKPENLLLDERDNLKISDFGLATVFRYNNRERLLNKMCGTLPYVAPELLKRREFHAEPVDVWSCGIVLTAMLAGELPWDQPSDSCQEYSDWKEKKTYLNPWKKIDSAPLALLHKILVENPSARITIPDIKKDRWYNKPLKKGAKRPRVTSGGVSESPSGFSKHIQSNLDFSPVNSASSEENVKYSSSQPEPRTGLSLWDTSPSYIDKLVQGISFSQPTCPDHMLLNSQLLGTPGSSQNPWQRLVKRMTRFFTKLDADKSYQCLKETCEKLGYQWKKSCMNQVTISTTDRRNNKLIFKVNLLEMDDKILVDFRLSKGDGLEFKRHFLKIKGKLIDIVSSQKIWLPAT
Sequence of UniProt P07332 (whole entry, looked up): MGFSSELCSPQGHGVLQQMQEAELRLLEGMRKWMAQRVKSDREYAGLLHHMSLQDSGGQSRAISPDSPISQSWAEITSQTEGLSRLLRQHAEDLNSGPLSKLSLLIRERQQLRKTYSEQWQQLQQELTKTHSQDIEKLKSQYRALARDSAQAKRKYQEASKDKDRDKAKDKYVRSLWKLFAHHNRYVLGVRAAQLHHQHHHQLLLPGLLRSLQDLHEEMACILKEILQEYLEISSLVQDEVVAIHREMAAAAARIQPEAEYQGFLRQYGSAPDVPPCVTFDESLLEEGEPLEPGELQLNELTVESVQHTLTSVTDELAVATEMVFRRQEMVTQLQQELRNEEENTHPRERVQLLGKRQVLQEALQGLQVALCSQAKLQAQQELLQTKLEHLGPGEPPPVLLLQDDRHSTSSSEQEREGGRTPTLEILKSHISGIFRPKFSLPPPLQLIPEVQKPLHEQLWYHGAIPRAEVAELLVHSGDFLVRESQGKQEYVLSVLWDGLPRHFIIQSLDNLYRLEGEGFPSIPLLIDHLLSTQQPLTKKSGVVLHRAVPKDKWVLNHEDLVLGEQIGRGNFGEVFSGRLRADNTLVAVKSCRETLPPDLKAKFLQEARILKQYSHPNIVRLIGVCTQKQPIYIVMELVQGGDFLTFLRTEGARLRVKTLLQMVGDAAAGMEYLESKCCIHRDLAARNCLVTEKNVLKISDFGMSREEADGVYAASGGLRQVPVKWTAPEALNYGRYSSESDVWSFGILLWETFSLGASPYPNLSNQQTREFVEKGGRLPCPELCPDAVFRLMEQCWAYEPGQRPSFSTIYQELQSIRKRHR
Sequence of UniProt P36894 (whole entry, looked up): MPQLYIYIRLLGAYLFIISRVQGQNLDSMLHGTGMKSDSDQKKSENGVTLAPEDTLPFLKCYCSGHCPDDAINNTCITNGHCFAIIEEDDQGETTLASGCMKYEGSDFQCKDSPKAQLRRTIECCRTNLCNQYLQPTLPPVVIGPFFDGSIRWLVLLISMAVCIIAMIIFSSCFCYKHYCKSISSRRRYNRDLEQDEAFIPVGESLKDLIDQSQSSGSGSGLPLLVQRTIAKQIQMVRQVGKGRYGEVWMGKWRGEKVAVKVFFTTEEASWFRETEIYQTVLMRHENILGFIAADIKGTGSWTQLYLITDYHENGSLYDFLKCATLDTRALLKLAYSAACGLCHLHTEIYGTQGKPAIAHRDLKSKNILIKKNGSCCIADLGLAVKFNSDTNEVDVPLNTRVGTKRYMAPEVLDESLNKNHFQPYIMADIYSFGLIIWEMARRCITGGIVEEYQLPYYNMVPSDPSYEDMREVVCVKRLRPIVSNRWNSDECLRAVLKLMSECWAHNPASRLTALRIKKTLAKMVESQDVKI
Sequence of UniProt P27361 (whole entry, looked up): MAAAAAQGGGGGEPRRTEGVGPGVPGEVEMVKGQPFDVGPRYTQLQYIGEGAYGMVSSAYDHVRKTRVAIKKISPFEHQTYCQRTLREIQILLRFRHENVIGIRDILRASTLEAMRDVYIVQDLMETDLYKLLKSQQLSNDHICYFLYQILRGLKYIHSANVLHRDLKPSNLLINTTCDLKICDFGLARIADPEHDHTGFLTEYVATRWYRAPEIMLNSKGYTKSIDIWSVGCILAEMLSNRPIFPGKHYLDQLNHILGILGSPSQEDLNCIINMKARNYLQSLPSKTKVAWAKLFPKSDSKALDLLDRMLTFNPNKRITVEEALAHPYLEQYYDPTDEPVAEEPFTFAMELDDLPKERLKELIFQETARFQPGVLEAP

Sample 1
Compound: NS(=O)(=O)c1cc(NC(=O)C2(c3ccccc3Cl)CC2)ccc1Oc1cccc(Cl)c1
Method: competition with immobilised ligand
Tested at: 1 µM
For RET (Homo sapiens, UniProt P07949, V804M); cell-free assay: remaining binding read 100%.
BMPR1A (Homo sapiens, UniProt P36894); binding — remaining binding: 90%.
CHEK1 (Homo sapiens, UniProt O14757); cell-free assay — remaining binding: 80%.
For FES (Homo sapiens, UniProt P07332); cell-free assay: remaining binding read 64%.
It gave 76% for remaining binding (MAPK3 (Homo sapiens, UniProt P27361); cell-free assay).

Sample 2
Cell line: HaCaT
Tested at: 100 µM
Time: 60 h
The viability of `CC1CCc2cc(F)cc3c(=O)c(C(=O)O)cn1c23` (stereo not drawn) is reported as 124%.
With `C[N+]1(C)CCC(=C(c2ccccc2)c2ccccc2)CC1` the viability was 163%.
The viability of `O=C(O)c1ccc[n+]([O-])c1` is reported as 143%.
The viability of `c1cc(CN2CCCNCCNCCCNCC2)ccc1CN1CCCNCCNCCCNCC1` is reported as 161%.
`CC(C)(C)C(=O)C(Oc1ccc(Cl)cc1)n1ccnc1` (stereo not drawn) gave a viability of 127%.

Sample 3
Cell line: mouse MPNST tumor cells
Method: high-content nuclear imaging
Item: cell number
Tested at: 10 µM
Time: 12 h
Setting: mean of 2 replicates
Relative to: plate mean
Reading: higher = more cells
For `CCS(=O)(=O)N(C)[C@H]1c2cc(C#N)ccc2OC(C)(C)[C@@H]1O`, the nuclei count was 1.07 z-score.
For `CN1CC[C@H](c2c(O)cc(O)c3c(=O)cc(-c4ccccc4Cl)oc23)[C@H](O)C1`, the nuclei count was -4.56 z-score.
For `Cc1nccn1CC1CCc2c(c3ccccc3n2C)C1=O` (stereo not drawn), the nuclei count was 0.418 z-score.
For `CNC(=O)c1c(I)c(C(=O)NCC(=O)Nc2c(I)c(C(=O)O)c(I)c(C(=O)NCCO)c2I)c(I)c(N(C)C(C)=O)c1I`, the nuclei count was 1.86 z-score.
The nuclei count of `CCOC(=O)c1c(-c2ccccc2)oc2ccc(Oc3c([N+](=O)[O-])ncn3C)cc12` is reported as -3.01 z-score.

Sample 4
Target: Mitogen-activated protein kinase kinase kinase 10 (MAP3K10, Homo sapiens, UniProt Q02779)
Sequence of UniProt Q02779 (whole entry, looked up): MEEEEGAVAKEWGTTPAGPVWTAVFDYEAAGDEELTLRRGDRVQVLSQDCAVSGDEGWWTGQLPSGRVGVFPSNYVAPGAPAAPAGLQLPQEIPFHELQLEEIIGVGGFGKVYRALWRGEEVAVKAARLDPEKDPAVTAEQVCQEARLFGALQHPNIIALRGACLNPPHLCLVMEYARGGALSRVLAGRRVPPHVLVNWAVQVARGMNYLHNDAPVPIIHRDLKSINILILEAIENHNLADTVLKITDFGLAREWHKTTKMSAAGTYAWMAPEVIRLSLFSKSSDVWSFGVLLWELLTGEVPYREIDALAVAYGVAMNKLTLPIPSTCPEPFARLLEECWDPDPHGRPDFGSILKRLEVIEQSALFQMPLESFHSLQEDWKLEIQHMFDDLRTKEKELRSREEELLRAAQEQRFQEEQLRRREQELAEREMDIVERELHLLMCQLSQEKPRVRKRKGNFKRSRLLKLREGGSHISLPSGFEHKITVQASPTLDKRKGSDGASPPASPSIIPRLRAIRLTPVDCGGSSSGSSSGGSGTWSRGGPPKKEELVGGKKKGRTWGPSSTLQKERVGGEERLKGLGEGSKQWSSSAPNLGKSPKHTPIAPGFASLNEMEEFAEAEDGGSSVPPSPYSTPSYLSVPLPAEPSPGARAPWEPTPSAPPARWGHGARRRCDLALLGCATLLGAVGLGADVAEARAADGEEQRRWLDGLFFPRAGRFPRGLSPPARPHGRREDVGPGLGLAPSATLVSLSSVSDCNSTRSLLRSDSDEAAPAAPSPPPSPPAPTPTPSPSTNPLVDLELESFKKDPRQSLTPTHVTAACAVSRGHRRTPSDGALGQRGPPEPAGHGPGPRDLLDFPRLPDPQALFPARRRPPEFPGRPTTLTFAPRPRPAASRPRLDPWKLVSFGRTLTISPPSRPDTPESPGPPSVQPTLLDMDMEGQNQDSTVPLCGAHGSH
Observed: enzyme activity
Action: inhibitor
Tested at: 0.5 µM
Relative to: control
The remaining activity of `COc1ccc(OC)c2c(=S)c3ccccc3[nH]c12` is reported as 92.8%.
`Cn1c2ccccc2c2c3c(c4c5ccccc5n(CCC#N)c4c21)CNC3=O` gave a remaining activity of 25.8%.
`COc1cc2ncnc(Nc3ccc(F)c(Cl)c3)c2cc1OCCCN1CCOCC1` gave a remaining activity of 109%.
For `Nc1ccc2ncnc(NCCc3ccc(Oc4ccccc4)cc3)c2c1`, the remaining activity was 91.9%.
`CCOC(=O)c1c(C)[nH]c(/C=C2\C(=O)Nc3ccccc32)c1C` gave a remaining activity of 98.5%.
With `COc1ccc(CNC(=O)Nc2ncc([N+](=O)[O-])s2)cc1` the remaining activity was 97.9%.
The remaining activity of `O=S(=O)(c1cccc2cnccc12)N1CCCNCC1` is reported as 88.3%.
For `C#Cc1cccc(Nc2ncnc3cc(OCCOC)c(OCCOC)cc23)c1`, the remaining activity was 108%.
`COc1cc2nccc(Oc3ccc(NC(=S)NC(=O)c4ccccc4C)cc3)c2cc1OC` has a remaining activity of 91%.
With `NCCNc1ncc(C(N)=O)c(Nc2cccc(C(F)(F)F)c2)n1` the remaining activity was 100%.
The remaining activity of `CO[C@H]1C[C@@H]2CC[C@@H](C)[C@@](O)(O2)C(=O)C(=O)N2CCCC[C@H]2C(=O)O[C@H]([C@H](C)C[C@@H]2CC[C@@H](O)[C@H](OC)C2)CC(=O)[C@H](C)/C=C(\C)[C@@H](O)[C@@H](OC)C(=O)[C@H](C)C[C@H](C)/C=C/C=C/C=C/1C` is reported as 109%.
`O=C1NC(=O)C(c2cn(CCCn3ccnc3)c3ccccc23)=C1Nc1ccccc1` gave a remaining activity of 34.5%.
With `Cc1cccc(-c2[nH]c(C(C)(C)C)nc2-c2ccc3c(c2)OCO3)n1` the remaining activity was 99.3%.
With `COc1cc2ncnc(Nc3ccc(Oc4ccccc4)cc3)c2cc1OC` the remaining activity was 96.7%.
`O=c1c2ccccc2[nH]c(=S)n1CCN1CCC(=C(c2ccc(F)cc2)c2ccc(F)cc2)CC1` gave a remaining activity of 99.6%.

Repeated from above (sample 3):
The nuclei count of `CCOC(=O)c1c(-c2ccccc2)oc2ccc(Oc3c([N+](=O)[O-])ncn3C)cc12` is reported as -3.01 z-score.
For `CCS(=O)(=O)N(C)[C@H]1c2cc(C#N)ccc2OC(C)(C)[C@@H]1O`, the nuclei count was 1.07 z-score.
